Published values collected from several papers.
A part holds a random share of what one study measured. Positions count from the first letter of the parent shown.

Series 1 — technique: universal PBM; form: double-stranded DNA, one strand shown; matrix: in vitro; tested at: 600 nM; direction: higher = stronger binding
Target: Sal-like protein 4, full length isoform A (SALL4, Homo sapiens, UniProt Q9UJQ4, residues 1-1053)
UniProt Q9UJQ4, sequence (whole entry, looked up): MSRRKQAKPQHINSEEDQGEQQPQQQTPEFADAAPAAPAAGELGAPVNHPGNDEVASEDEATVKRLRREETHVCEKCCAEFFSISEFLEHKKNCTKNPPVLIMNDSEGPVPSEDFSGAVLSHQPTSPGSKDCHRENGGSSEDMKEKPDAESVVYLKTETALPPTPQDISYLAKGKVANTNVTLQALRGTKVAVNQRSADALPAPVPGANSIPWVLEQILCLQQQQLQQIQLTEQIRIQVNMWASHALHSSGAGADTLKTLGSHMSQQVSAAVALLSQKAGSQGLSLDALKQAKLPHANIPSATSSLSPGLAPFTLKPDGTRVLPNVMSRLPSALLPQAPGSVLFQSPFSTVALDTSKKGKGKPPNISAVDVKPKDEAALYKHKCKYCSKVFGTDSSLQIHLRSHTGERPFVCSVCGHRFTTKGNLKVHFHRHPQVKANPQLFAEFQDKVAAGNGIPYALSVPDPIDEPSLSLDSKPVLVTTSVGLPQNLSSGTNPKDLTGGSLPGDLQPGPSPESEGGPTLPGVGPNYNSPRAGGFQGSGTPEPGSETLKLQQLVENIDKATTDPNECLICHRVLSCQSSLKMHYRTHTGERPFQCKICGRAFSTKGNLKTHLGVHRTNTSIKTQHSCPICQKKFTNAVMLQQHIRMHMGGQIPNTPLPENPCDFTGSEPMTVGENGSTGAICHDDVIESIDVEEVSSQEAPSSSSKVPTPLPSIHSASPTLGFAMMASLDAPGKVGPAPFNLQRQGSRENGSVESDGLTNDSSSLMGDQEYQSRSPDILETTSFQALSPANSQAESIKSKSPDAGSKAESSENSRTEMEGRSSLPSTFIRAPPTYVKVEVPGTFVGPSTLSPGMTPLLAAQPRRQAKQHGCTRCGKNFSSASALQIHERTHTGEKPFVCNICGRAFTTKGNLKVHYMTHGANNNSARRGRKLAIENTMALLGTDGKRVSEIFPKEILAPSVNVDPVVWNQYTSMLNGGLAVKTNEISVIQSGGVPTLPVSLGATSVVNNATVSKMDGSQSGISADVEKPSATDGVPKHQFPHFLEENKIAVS
Notes: 8-mer, flanks averaged, mean of replicates
| Sequence | E-score |
| --- | --- |
| CTACATAG | 0.149 |
| AAACCAAC | 0.0696 |
| TGACTTAA | 0.187 |
| CAATAGAG | 0.127 |
| ACCAACAA | 0.0632 |
| GAACCGTC | -0.0437 |
| ACAACCGC | -0.196 |
| ACCTGCAC | -0.135 |
| ACTCATAG | 0.148 |
| AGTTGATA | 0.229 |
| GCAGTAAC | -0.0523 |
| AGATGCAC | -0.0207 |
| AAAAGTAA | 0.327 |
| CACGACAG | -0.126 |
| CTTCGCAA | 0.0577 |
| GATTCGAA | 0.0769 |
| GCCAAGGA | -0.117 |

Series 2 — technique: RNA Bind-n-Seq; form: RNA; matrix: in vitro; tested at: 365 nM; relative to: no-protein control; direction: higher = stronger binding
Target: RNA binding protein fox-1 homolog 2, RRM domain, GST-SBP tag (RBFOX2, Homo sapiens, UniProt O43251-10, residues 100-194)
Notes: natural RNA segment, single round, ends assumed
Shared flanks, not repeated: GGGAGUUCUACAGUCCGACGAUC … UGGAAUUCUCGGGUGCCAA
Target sequence (chain): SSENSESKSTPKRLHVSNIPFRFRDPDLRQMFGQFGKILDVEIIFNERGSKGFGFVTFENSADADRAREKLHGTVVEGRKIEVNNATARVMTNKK
| Sequence | RBNS enrichment (R) |
| --- | --- |
| AAGCUGGUUGUUAUUAACCAAGCUACAGAUUCACACUUUCUGGCCUAAACCCUAAUGGGAUGAGGCUUUUCACCCCAGGCCAUGCUGGUGGUGAUUUUUUAGCCCCUAAA | 0.285 |
| ACCAGGAGCUAAACUGAGAGGCUAAACUGUGUCAUGAAGCGCGUUGGAAACAGACUUCUGCCUACAUCGAGUCCUACGAAUUGGGGUUGUAUUGAUGUCACUCUGGUGCC | 0.525 |
| ACUCAACAUACUGCCUUCUAAGCUUCCCUUUUUUUGUUCAAAGCAUGAUCUUAAAGAUAUGUUUAAGUUAAUGGAUGUAAUGCAGGGUUCCUACACUGUAUUUUGGCGCA | 2.37 |
| GAGUGUGAAUAUUCUUAUUUAAAGUAUAUUUUUACAUUAUGCAAAUGAACUUUAACAUUUUAGUCCAAUGUGACUAGUCAAAUAAACCAAAUAAACUGAGUAUUUUGUCU | 0.742 |
| CGUUAAGCAGAAGAAGUCAGUAGUUAUUCUCCCAUGAACGUUCUUGUCUGUGUACAGUUUUUAGAACAUUACAAAGGAUCUGUUUGCUUAGCUGUCAACAAAAAGAAAAC | 0.447 |

Series 3 — technique: protein-binding microarray; form: double-stranded DNA, one strand shown; matrix: in vitro; tested at: 2540 nM top; notes: 60-bp whole probe; together with: salmon DNA 0.4 mg/ml; relative to: random background probes; direction: higher = stronger binding; shared flanks, not repeated: GCCTAGCAC … GTCTTGATTCGCTTGACGCTGCTG
Target: Interferon regulatory factor 3, full length, phosphomimetic (IRF3, Homo sapiens, UniProt Q14653, residues 1-427, S386D/S396D/S398D/S402D/T404D/S405D)
Target sequence (chain): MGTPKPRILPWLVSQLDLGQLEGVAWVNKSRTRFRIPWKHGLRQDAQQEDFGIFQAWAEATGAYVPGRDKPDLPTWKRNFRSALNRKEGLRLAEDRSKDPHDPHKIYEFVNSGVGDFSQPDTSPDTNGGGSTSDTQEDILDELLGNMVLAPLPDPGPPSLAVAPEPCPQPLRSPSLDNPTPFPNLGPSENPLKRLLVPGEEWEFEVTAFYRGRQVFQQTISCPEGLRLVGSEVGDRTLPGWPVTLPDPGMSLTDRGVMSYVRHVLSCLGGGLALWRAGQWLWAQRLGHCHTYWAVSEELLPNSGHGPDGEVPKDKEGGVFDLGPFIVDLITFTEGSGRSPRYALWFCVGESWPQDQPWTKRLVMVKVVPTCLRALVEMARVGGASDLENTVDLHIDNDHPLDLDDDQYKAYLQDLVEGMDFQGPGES
| Sequence | fitted relative affinity [z-score] |
| --- | --- |
| GACGGCTTCGGTATCGGGACGTGCTAG | 0.91 |
| TCAAATGACCTTCTCAGACTGTGCTAG | 0.683 |
| TTAGGTCTCCTTTTCCTTGAGTGCTAG | 4.76 |
| GACGGTAGCGACTATCGGGACGTGCTA | -0.494 |
| CACGGTTTCCTTATCCTGACGTGCTAG | 7.1 |
| TTAGGTTCCTGTTTCGGTTAGTGCTAG | 6.27 |
| TTTAGATTTTTTTTCCTAATGTGCTAG | 1.72 |
| GACGAGTCCAGTTTCGAGACGTGCTAG | 2.2 |
| TTAGGACTTGGTTTCGGTTAGTGCTAG | 4.31 |
| GACGGTATCCGTCTCGGGACGTGCTAG | 4.7 |
| AATTTTGTCATCTATAATGGAGTGCTA | 0.761 |

Series 4 — target: CCNB1, cyclin fold, Cln2 fusion (human); technique: yeast growth competition, sequencing; matrix: yeast; notes: strong parent motif; relative to: not given; direction: higher = stronger binding
Starting sequence: E2F1 docking peptide (human); PPVKRRLDFETDH
| Substitution | normalised enrichment score |
| --- | --- |
| PPVKRRLKFETDH [D8K] | 3.75 |
| PIVKRRLDFETDH [P2I] | 4.56 |
| PPSKRRLDFETDH [V3S] | 0.736 |
| PPVKNRLDFETDH [R5N] | 0.991 |
| PPVKRRLWFETDH [D8W] | 4.84 |
| PPVTRRLDFETDH [K4T] | 5.05 |
| PPVKRRLDFETAH [D12A] | 5.1 |
| PPVQRRLDFETDH [K4Q] | 5.33 |
| PPVIRRLDFETDH [K4I] | 5.4 |
| PPYKRRLDFETDH [V3Y] | 1.81 |
| PPVKRKLDFETDH [R6K] | 5.07 |
| PPVKRRLMFETDH [D8M] | 4.65 |
| PPTKRRLDFETDH [V3T] | 3.64 |
| PPVKRRLDFCTDH [E10C] | 4.56 |

Some of these lines once more (series 3):
| Sequence | fitted relative affinity [z-score] |
| --- | --- |
| TTAGGTCTCCTTTTCCTTGAGTGCTAG | 4.76 |
| GACGGTAGCGACTATCGGGACGTGCTA | -0.494 |
| CACGGTTTCCTTATCCTGACGTGCTAG | 7.1 |
| TTAGGTTCCTGTTTCGGTTAGTGCTAG | 6.27 |
| TTTAGATTTTTTTTCCTAATGTGCTAG | 1.72 |
